Results pooled from the literature.
Every numbered part comes from another study and shows a few of its results, in no order.

Study 1
Target: Centromere-binding protein 1, full length, N-terminal tag (CBF1, Saccharomyces cerevisiae, UniProt P17106, residues 1-351)
Sequence of UniProt P17106 (whole entry, looked up): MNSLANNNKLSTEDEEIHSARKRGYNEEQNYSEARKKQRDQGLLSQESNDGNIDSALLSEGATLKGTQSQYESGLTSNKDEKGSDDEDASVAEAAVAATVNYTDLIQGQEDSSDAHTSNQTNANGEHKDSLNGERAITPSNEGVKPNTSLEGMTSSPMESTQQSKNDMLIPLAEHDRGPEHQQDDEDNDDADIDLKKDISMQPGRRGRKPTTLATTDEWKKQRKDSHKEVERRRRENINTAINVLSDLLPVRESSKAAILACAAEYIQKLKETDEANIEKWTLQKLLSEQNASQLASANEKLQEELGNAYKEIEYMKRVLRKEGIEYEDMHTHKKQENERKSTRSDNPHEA
Method: protein-binding microarray
Molecule type: double-stranded DNA, one strand shown
Sample: in vitro
Tested at: 0.8 µM
Setting: whole 60-bp probe, no competitor
Reading: higher = stronger binding
Constant ends, left off below: … GTCTTGATTCGCTTGACGCTGCTG
Strand | fluorescence intensity [a.u.]
CCTAACTACTATATTAGCGTGCCATAGCTTCGTACA | 510
CTACCTTGTAAATTTCACATGCTCGACCGTTTATTC | 605
CTAATTTAGCAGTAAGCCGTGACTTGTCTAGCCTTC | 615
GAATGTGGAGCAAGCCACGCCATGTGATTAACCTAG | 2540
TGTACGAAGCTATGGCACGCGCATATAGTAGTTAGG | 1050
CTAGCGTGGGGTTCCCACGAGCGGCAGGAACCGTTC | 512
GAATAGGACTCAACGTGACTGTCAGTCTTCAGTTAG | 1910

Study 2
Target: Interferon regulatory factor 3, full length, phosphomimetic (IRF3, Homo sapiens, UniProt Q14653, residues 1-427, S386D/S396D/S398D/S402D/T404D/S405D)
Method: protein-binding microarray
Molecule type: double-stranded DNA, one strand shown
Sample: in vitro
Tested at: 2540 nM top
Setting: 60-bp whole probe
With: salmon DNA 0.4 mg/ml
Reference: random background probes
Reading: higher = stronger binding
Constant ends, left off below: GCCTAGCAC … GTCTTGATTCGCTTGACGCTGCTG
Target sequence (chain): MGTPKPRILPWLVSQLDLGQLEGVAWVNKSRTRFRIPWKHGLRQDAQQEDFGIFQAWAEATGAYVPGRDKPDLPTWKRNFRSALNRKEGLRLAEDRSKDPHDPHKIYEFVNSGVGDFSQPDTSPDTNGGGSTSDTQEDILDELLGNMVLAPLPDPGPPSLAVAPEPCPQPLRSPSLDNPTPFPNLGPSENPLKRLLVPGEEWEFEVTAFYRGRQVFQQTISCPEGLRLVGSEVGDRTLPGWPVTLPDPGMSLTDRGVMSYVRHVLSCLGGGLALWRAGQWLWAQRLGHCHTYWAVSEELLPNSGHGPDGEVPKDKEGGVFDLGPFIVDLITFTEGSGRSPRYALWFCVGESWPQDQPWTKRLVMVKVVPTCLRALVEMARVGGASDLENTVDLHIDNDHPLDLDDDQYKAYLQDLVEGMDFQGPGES
Strand | fitted relative affinity [z-score]
CGTAAGCAAAAATGATTGGTGTGCTAG | -0.116
TTAGGTCTCCAACTGCTTTAGTGCTAG | 0.525
TCACCTACAGGTTCTCTGACTGTGCTA | -0.0869
TTTTTTTTGCAAGCTAAAAAAGTGCTA | 1.09
TTAGAACTGGGGTTTCTATTAGTGCTA | -0.145
TCAGCTATTTTATATGCTACTGTGCTA | 0.34
TTTTTTTTTTTTTTTTTACTGTGCTAG | 1.48
TTTGGTCTCCTTCTCCTTTAGTGCTAG | 4.42

Study 3
Target: RNA binding protein fox-1 homolog 2, RRM domain, GST-SBP tag (RBFOX2, Homo sapiens, UniProt O43251-10, residues 100-194)
Method: RNA Bind-n-Seq
Molecule type: RNA
Sample: in vitro
Tested at: 365 nM
Setting: natural RNA segment, single round, ends assumed
Reference: no-protein control
Reading: higher = stronger binding
Constant ends, left off below: GGGAGUUCUACAGUCCGACGAUC … UGGAAUUCUCGGGUGCCAA
Residues (chain): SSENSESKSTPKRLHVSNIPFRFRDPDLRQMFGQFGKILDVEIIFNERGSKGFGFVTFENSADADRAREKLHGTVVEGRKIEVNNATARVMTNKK
Strand | RBNS enrichment (R)
AAUUUUACAUAGUGAAAUACACCAAGUCUUUUCCGGAGUUAUUACAAAGAGCCUCCUUUCCCCACCUUACUCACACUGAUUCCCACCUAACAAUCAGCAGAUGGGAGUGU | 0.391
GGAAUGGUGGAUACUGUCUUCUGACUCAGGCUCUAGGCUCCAUGGCUUCCUCUCUCUGGUCCUGCCACACAGAAGGAAAGCCCUGUCCAGGAUAAUGAGCGUUGCUGACA | 0.271
CUCUGAGAUCUUGGGUGACUUCUCAUCACUCUGGACCUCCAUUCCUGUGAAGUGACAGGUGUGGACCCUGAGGGUGCGGUGGUGAGCACACUGUCUCCUGCUGGCAUUCA | 0.284
UUUUGACCCAAGUGUUUUAACUUAGUCCAGAAUAGUUUCCUUUGUCUUUUGUAACUUUACAGAGGAUCAAAGCCGUUCUUUUCCAUUUCUUGGCCAGGCCUGUACUCUCC | 0.338
UAUCUCAGACCCAAGGCACCUCAGGUCUCUUUGCUGUGCCUCCACUAUAUUGUCGUGUGGGUGUGUGUCUGCACCCACAUCCUCACACAUUGAUCUAGAUCUGCCUUUAU | 0.261
UGGGGGAAAUUUUCUAUAAAAGAGUGAACAAUUAUAUUUAUAUUUCAAGUUAAAGUAGUUUGGAUACUUUAGUGGUUUUGUUGUUGUUUCUUCUUUUUCCUUUUUUUUUU | 1.16
UUUUAUGCCACCAAUCACCAAAAAUUGAUACCACAUUCUUUAUUAUAAUGCUUUAUACUUUGCCAGGAAGAAGUAUAGCUAUAGUUGAGGUGUACCUAAGAAAUUAGCAA | 1.01

Mixed results
Substance | target | assay | system | setting | how to read | quantity | result
PhoQ, residues 284 288 289 292 302 303 TNASYF | PhoP, residues 12 14 15 18 19 LQHIR (Escherichia coli, UniProt P23836) | Sort-seq, refers to: YFP reporter | E. coli | PhoQ-PhoP variant library, with: 10 µM Mg2+ | reference: high Mg2+ state, higher = stronger signaling | fold induction | 8.05

For quick reference, copied from above (study 3):
Strand | RBNS enrichment (R)
UAUCUCAGACCCAAGGCACCUCAGGUCUCUUUGCUGUGCCUCCACUAUAUUGUCGUGUGGGUGUGUGUCUGCACCCACAUCCUCACACAUUGAUCUAGAUCUGCCUUUAU | 0.261
CUCUGAGAUCUUGGGUGACUUCUCAUCACUCUGGACCUCCAUUCCUGUGAAGUGACAGGUGUGGACCCUGAGGGUGCGGUGGUGAGCACACUGUCUCCUGCUGGCAUUCA | 0.284
